{"data": "Measured values from different studies", "note": "A part holds a random share of what one study measured. Positions count from the first letter of the parent shown."}
{"data": "Set 1", "target": "CEBPE, bZIP domain (human)", "method": "DHFR protein complementation", "matrix": "yeast", "setting": "single substitutions, most at no-binding floor", "relative to": "wild-type JUN-FOS pair", "reading": "higher = stronger binding", "parent": "JUN, bZIP domain (human); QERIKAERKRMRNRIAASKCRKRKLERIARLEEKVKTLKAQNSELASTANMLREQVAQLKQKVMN; partner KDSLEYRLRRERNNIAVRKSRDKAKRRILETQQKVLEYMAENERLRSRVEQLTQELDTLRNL"}
{"Variant": "K39I", "binding fitness": "-1.12 natural log"}
{"Variant": "T37H", "binding fitness": "-0.996 natural log"}
{"Variant": "M51N", "binding fitness": "-1.09 natural log"}
{"Variant": "S47V", "binding fitness": "-0.993 natural log"}
{"Variant": "S47E", "binding fitness": "-0.864 natural log"}
{"Variant": "S47W", "binding fitness": "-1.18 natural log"}
{"Variant": "Q41I", "binding fitness": "-1.2 natural log"}
{"Variant": "K36E", "binding fitness": "-1.02 natural log"}
{"Variant": "E54W", "binding fitness": "-1.36 natural log"}
{"Variant": "R30M", "binding fitness": "-1.09 natural log"}
{"Variant": "E32V", "binding fitness": "-1.35 natural log"}
{"Variant": "S43M", "binding fitness": "-1.01 natural log"}
{"Variant": "N42T", "binding fitness": "-1.46 natural log"}
{"Variant": "L52V", "binding fitness": "-1.42 natural log"}
{"Variant": "A40W", "binding fitness": "-1.37 natural log"}
{"Variant": "Q55T", "binding fitness": "-1.33 natural log"}
{"Variant": "L31T", "binding fitness": "-1.44 natural log"}
{"data": "Set 2", "target": "RNA binding protein fox-1 homolog 2, RRM domain, GST-SBP tag (RBFOX2, Homo sapiens, UniProt O43251-10, residues 100-194)", "method": "RNA Bind-n-Seq", "form": "RNA", "matrix": "in vitro", "tested at": "365 nM", "setting": "natural RNA segment, single round, ends assumed", "relative to": "no-protein control", "reading": "higher = stronger binding", "Target sequence (chain)": "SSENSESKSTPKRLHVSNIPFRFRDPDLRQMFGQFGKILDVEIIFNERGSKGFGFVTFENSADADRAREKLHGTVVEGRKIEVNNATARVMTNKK"}
{"Oligonucleotide": "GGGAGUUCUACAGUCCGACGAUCAAGGCAGAGGGGAGCUUGAGGGACAAUGCCACUAUAGUUUAAUACUCAGAGGGGGUUGGGUUUGGGGACAUAAAGCCUCUGACUCAAACUCCUCCCUUUUAUCUUCUAGCUGGAAUUCUCGGGUGCCAA", "RBNS enrichment (R)": 0.408}
{"Oligonucleotide": "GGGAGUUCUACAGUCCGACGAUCGGACUUGGCCUGAGGCCUUUCGGGCCUCUCCAGUGGGUUCUGUUUAUCCUCUCAUGGGUGAUUAUCUCAGUGGUGUCACCAGGGGCUUCCUCCCAGAAGUCAGUCAUCCCUGGAAUUCUCGGGUGCCAA", "RBNS enrichment (R)": 0.315}
{"Oligonucleotide": "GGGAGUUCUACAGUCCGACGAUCUCAUUUAAAGCAAAAUUAGGUAGAACAAACCAGUCAGUAAGAUUAGAAGUAUUACAGAGAAUCAUCCUUUUAAUCACAGAUCUUAUUUUGGAGUAAAACAAACUUCUAGCUGGAAUUCUCGGGUGCCAA", "RBNS enrichment (R)": 0.61}
{"Oligonucleotide": "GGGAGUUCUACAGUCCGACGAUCUAUAUAAAGACUGGCACCCUGCCUCUCUGUGCCCAGGCCCAGCCCUGGUGACAUGGCACCACUCAGCAGUGCUGUCACUGUAAGCAUGGACUCCCAGGAGACAGUGUGGGUGGAAUUCUCGGGUGCCAA", "RBNS enrichment (R)": 0.685}
{"Oligonucleotide": "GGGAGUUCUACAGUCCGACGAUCGGUGGAAGGGGGUGCAUGUAUGUGUUAGUGUUUGUGUGUGUGUGUGUGUCUGUCUGUUCGUCUGUCCACCUAUCUUUGUGGAAGUCACUGUGAUGGUAGUGACUUUAUGAUGGAAUUCUCGGGUGCCAA", "RBNS enrichment (R)": 23.2}
{"Oligonucleotide": "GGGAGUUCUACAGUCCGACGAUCACUCAGUCUGCGCCUCUAUAGGUUCUUGUAGAGCCUUGGUUGUUUCUGGCCUCUGCCUGGGACAGUAAAGGAUGGAGGAUCAGGCCUGGAGCCCCAGCCCCACCUUAGCCUGGAAUUCUCGGGUGCCAA", "RBNS enrichment (R)": 0.318}
{"Oligonucleotide": "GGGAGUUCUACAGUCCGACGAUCAUCCACUGAGCCUUCAGCAGAAAUUCCUUUUCUAGACAUUAAAACCACUUAACAUCCGUACUGUUUGUUAUAUAUUUCUCCCGACCCUACUCCCCACUCCUGCCACCAAGUGGAAUUCUCGGGUGCCAA", "RBNS enrichment (R)": 0.834}
{"Oligonucleotide": "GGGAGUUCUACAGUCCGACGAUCAUCAGAGGAAGGAUUUUAUAAAGAUUAAUAAAUUUAAUUUUACCAAUAAAUAUUCCCAUAAUUUAGAAAAGGAUGUCGACUUGCUAAUUUCAGAAAUAAUUAUUCAUUUUUGGAAUUCUCGGGUGCCAA", "RBNS enrichment (R)": 0.82}
{"data": "Set 3", "target": "ABI1, truncated, D143A, DHFR fusion (Arabidopsis thaliana)", "method": "DHFR PCA, deep sequencing", "matrix": "yeast", "setting": "methotrexate growth selection, single substitutions", "added": "(+)-ABA 1.4 µM", "relative to": "wild-type fitted maximum", "reading": "higher = stronger binding", "parent": "PYL1, truncated, DHFR fusion (Arabidopsis thaliana); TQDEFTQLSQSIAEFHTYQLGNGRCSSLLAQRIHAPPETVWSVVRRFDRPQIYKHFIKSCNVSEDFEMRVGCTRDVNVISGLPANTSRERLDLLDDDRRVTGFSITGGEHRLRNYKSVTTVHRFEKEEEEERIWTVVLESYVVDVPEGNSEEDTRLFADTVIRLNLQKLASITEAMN; partner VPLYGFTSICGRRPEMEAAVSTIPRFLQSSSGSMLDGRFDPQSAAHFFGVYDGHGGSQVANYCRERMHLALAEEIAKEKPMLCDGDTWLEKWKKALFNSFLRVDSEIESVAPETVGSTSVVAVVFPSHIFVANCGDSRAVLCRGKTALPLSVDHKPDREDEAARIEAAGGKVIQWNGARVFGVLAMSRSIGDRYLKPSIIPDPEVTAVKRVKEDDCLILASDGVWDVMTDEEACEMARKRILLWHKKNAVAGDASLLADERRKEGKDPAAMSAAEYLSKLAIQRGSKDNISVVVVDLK"}
{"Variant": "E14T", "relative binding score [%]": 22.1}
{"Variant": "S26T", "relative binding score [%]": 54.1}
{"Variant": "R99E", "relative binding score [%]": 10.1}
{"Variant": "G107A", "relative binding score [%]": 23.2}
{"Variant": "V78D", "relative binding score [%]": -8.1}
{"Variant": "T86Y", "relative binding score [%]": 64.2}
{"Variant": "T39N", "relative binding score [%]": 13.2}
{"Variant": "S87W", "relative binding score [%]": 10.6}
{"Variant": "V136M", "relative binding score [%]": 65.2}
{"Variant": "V136H", "relative binding score [%]": -15.7}
{"Variant": "L82N", "relative binding score [%]": -1.92}
{"Variant": "I52A", "relative binding score [%]": 60}
{"Variant": "E64A", "relative binding score [%]": 62.2}
{"Variant": "R155L", "relative binding score [%]": 20.2}
{"Variant": "V40N", "relative binding score [%]": -47.5}
{"Variant": "V137E", "relative binding score [%]": -9.89}
{"data": "Set 4", "target": "CCNE2, cyclin fold, Cln2 fusion (human)", "method": "yeast growth competition, sequencing", "matrix": "yeast", "setting": "weak parent motif", "relative to": "not given", "reading": "higher = stronger binding", "parent": "KIF20B docking peptide (human); KRAKRKLYTSEIS"}
{"Variant": "KRAKRKLYTAEIS [S10A]", "normalised enrichment score": 0.0801}
{"Variant": "KRAKRKLYASEIS [T9A]", "normalised enrichment score": 0.431}
{"Variant": "KRAKRKLATSEIS [Y8A]", "normalised enrichment score": -0.202}
{"Variant": "KRAARKLYTSEIS [K4A]", "normalised enrichment score": 0.861}
{"Variant": "KRAKRKLYTSEAS [I12A]", "normalised enrichment score": 0.591}
{"Variant": "KRAKAKLYTSEIS [R5A]", "normalised enrichment score": -0.121}
{"note": "Repeated from above (set 1):"}
{"Variant": "Q55T", "binding fitness": "-1.33 natural log"}
{"Variant": "S43M", "binding fitness": "-1.01 natural log"}
{"Variant": "A40W", "binding fitness": "-1.37 natural log"}
{"Variant": "S47W", "binding fitness": "-1.18 natural log"}
